# Published values from different studies.
# pKd: −log10 of the molar value.
# U2AF2: U2AF2 148-342 (Homo sapiens, UniProt P26368)
# Sequence of UniProt P26368 (whole entry, looked up): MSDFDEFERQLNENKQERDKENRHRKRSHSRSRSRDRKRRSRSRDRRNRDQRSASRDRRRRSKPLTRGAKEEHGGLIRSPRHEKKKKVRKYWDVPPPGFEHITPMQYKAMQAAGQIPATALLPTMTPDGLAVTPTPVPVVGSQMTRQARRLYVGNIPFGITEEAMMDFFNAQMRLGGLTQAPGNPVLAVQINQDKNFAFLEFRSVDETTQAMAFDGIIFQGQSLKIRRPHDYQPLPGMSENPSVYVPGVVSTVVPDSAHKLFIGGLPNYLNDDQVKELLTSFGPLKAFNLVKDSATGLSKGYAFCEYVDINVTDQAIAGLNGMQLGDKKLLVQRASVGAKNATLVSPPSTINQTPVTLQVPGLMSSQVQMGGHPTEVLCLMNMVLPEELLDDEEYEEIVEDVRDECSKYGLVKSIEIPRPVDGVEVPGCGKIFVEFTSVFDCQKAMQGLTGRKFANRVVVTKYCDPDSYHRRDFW
# B1: cooS 1-639 C49S (Rhodospirillum rubrum, UniProt P31896); chain MTHHDCAHCSSDACATEMLNLAEANSIETAWHRYEKQQPQCGFGSAGLSCRICLKGPCRIDPFGEGPKYGVCGADRDTIVARHLVRMIAAGTAAHSEHGRHIALAMQHISQGELHDYSIRDEAKLYAIAKTLGVATEGRGLLAIVGDLAAITLGDFQNQDYDKPCAWLAASLTPRRVKRLGDLGLLPHNIDASVAQTMSRTHVGCDADPTNLILGGLRVAMADLDGSMLATELSDALFGTPQPVVSAANLGVMKRGAVNIAVNGHNPMLSDIICDVAADLRDEAIAAGAAEGINIIGICCTGHEVMMRHGVPLATNYLSQELPILTGALEAMVVDVQCIMPSLPRIAECFHTQIITTDKHNKISGATHVPFDEHKAVETAKTIIRMAIAAFGRRDPNRVAIPAFKQKSIVGFSAEAVVAALAKVNADDPLKPLVDNVVNGNIQGIVLFVGCNTTKVQQDSAYVDLAKSLAKRNVLVLATGCAAGAFAKAGLMTSEATTQYAGEGLKGVLSAIGTAAGLGGPLPLVMHMGSCVDNSRAVALATALANKLGVDLSDLPLVASAPECMSEKALAIGSWAVTIGLPTHVGSVPPVIGSQIVTKLVTETAKDLVGGYFIVDTDPKSAGDKLYAAIQERRAGLGL
# B2: cutA1 1-112 (Escherichia coli, UniProt P69488); chain MLDEKSSNTASVVVLCTAPDEATAQDLAAKVLAEKLAACATLIPGATSLYYWEGKLEQEYEVQMILKTTVSHQQALLECLKSHHPYQTPELLVLPVTHGDTDYLSWLNASLR
# B3: TBK1 D135N/H459E/N474A (Homo sapiens, UniProt Q9UHD2); sequence looked up; chain MQSTSNHLWLLSDILGQGATANVFRGRHKKTGDLFAIKVFNNISFLRPVDVQMREFEVLKKLNHKNIVKLFAIEEETTTRHKVLIMEFCPCGSLYTVLEEPSNAYGLPESEFLIVLRDVVGGMNHLRENGIVHRNIKPGNIMRVIGEDGQSVYKLTDFGAARELEDDEQFVSLYGTEEYLHPDMYERAVLRKDHQKKYGATVDLWSIGVTFYHAATGSLPFRPFEGPRRNKEVMYKIITGKPSGAISGVQKAENGPIDWSGDMPVSCSLSRGLQVLLTPVLANILEADQEKCWGFDQFFAETSDILHRMVIHVFSLQQMTAHKIYIHSYNTATIFHELVYKQTKIISSNQELIYEGRRLVLEPGRLAQHFPKTTEENPIFVVSREPLNTIGLIYEKISLPKVHPRYDLDGDASMAKAITGVVCYACRIASTLLLYQELMRKGIRWLIELIKDDYNETVEKKTEVVITLDFCIRAIEKTVKVYEKLMKINLEAAELGEISDIHTKLLRLSSSQGTIETSLQDIDSRLSPGGSLADAWAHQEGTHPKDRNVEKLQVLLNCMTEIYYQFKKDKAERRLAYNEEQIHKFDKQKLYYHATKAMTHFTDECVKKYEAFLNKSEEWIRKMLHLRKQLLSLTNQCFDIEEEVSKYQEYTNELQETLPQKMFTASSGIKHTMTPIYPSSNTLVEMTLGMKKLKEEMEGVVKELAENNHILERFGSLTMDGGLRNVDCL
# B4: REC107 41-224 (Saccharomyces cerevisiae, UniProt P21651); chain KVANAGALEESDKQILEWAGKLELESMELRENSDKLIKVLNENSKTLCKSLNKFNQLLEQDAATNGNVKTLIKDLASQIENQLDKVSTAMLSKGDEKKTKSDSSYRQVLVEEISRYNSKITRHVTNKQHETEKSMRCTQEMLFNVGSQLEDVHKVLLSLSKDMHSLQTRQTALEMAFREKADHA
# B5: Pah F80A (Rattus norvegicus, UniProt P04176); sequence looked up; chain MAAVVLENGVLSRKLSDFGQETSYIEDNSNQNGAISLIFSLKEEVGALAKVLRLFEENDINLTHIESRPSRLNKDEYEFATYLDKRTKPVLGSIIKSLRNDIGATVHELSRDKEKNTVPWFPRTIQELDRFANQILSYGAELDADHPGFKDPVYRARRKQFADIAYNYRHGQPIPRVEYTEEEKQTWGTVFRTLKALYKTHACYEHNHIFPLLEKYCGFREDNIPQLEDVSQFLQTCTGFRLRPVAGLLSSRDFLGGLAFRVFHCTQYIRHGSKPMYTPEPDICHELLGHVPLFSDRSFAQFSQEIGLASLGAPDEYIEKLATIYWFTVEFGLCKEGDSIKAYGAGLLSSFGELQYCLSDKPKLLPLELEKTACQEYSVTEFQPLYYVAESFSDAKEKVRTFAATIPRPFSVRYDPYTQRVEVLDNTQQLKILADSINSEVGILCNALQKIKS
# B6: GGPS1 (Homo sapiens, UniProt O95749); sequence looked up; chain MEKTQETVQRILLEPYKYLLQLPGKQVRTKLSQAFNHWLKVPEDKLQIIIEVTEMLHNASLLIDDIEDNSKLRRGFPVAHSIYGIPSVINSANYVYFLGLEKVLTLDHPDAVKLFTRQLLELHQGQGLDIYWRDNYTCPTEEEYKAMVLQKTGGLFGLAVGLMQLFSDYKEDLKPLLNTLGLFFQIRDDYANLHSKEYSENKSFCEDLTEGKFSFPTIHAIWSRPESTQVQNILRQRTENIDIKKYCVHYLEDVGSFEYTRNTLKELEAKAYKQIDARGGNPELVALVKHLSKMFKEENE
# B7: clpP2 heptamer (Pseudomonas aeruginosa, UniProt Q9HYR9); sequence looked up; chain MKTDDKDREGGDSHGAIGAKLMEYALKVRKVFVTGGVDEKMAKDVVQQLHILASISDDPIYMFVNSPGGHVESGDMIFDAIRFITPKVIMIGSGSVASAGALIYAAADKENRYSLPNTRFLLHQPSGGIQGPASNIEIYRREIVRMKERLDRIFAEATGQTPEKISADTERDFWLNAEEAVQYGLVNKIIVSEREITLPGQ
# B8: RBKS E154R (Homo sapiens, UniProt Q9H477); sequence looked up; chain MAASGEPQRQWQEEVAAVVVVGSCMTDLVSLTSRLPKTGETIHGHKFFIGFGGKGANQCVQAARLGAMTSMVCKVGKDSFGNDYIENLKQNDISTEFTYQTKDAATGTASIIVNNEGQNIIVIVAGANLLLNTEDLRAAANVISRAKVMVCQLRITPATSLEALTMARRSGVKTLFNPAPAIADLDPQFYTLSDVFCCNESEAEILTGLTVGSAADAGEAALVLLKRGCQVVIITLGAEGCVVLSQTEPEPKHIPTEKVKAVDTTGAGDSFVGALAFYLAYYPNLSLEDMLNRSNFIAAVSVQAAGTQSSYPYKKDLPLTLF
# B9: aqpZ 1-231 K4A (Escherichia coli, UniProt P60844); chain MFRALAAECFGTFWLVFGGCGSAVLAAGFPELGIGFAGVALAFGLTVLTMAFAVGHISGGHFNPAVTIGLWAGGRFPAKEVVGYVIAQVVGGIVAAALLYLIASGKTGFDAAASGFASNGYGEHSPGGYSMLSALVVELVLSAGFLLVIHGATDKFAPAGFAPIAIGLALTLIHLISIPVTNTSVNPARSTAVAIFQGGWALEQLWFFWVVPIVGGIIGGLIYRTLLEKRD
# B10: ZTL 29-165 G46A/G80R (Arabidopsis thaliana, UniProt Q94BT6); sequence looked up; chain GGPIPYPVGNLLHTAPCAFVVTDAVEPDQPIIYVNTVFEMVTGYRAEEVLGRNCRFLQCRGPFAKRRHPLVDSMVVSEIRKCIDEGIEFQGELLNFRKDGSPLMNRLRLTPIYGDDDTITHIIGIQFFIETDIDLGP
# B11: human hnRNP R; sequence looked up; chain ANQVNGNAVQLKEEEEPMDTSSVTHTEHYKTLIEAGLPQKVAERLDEIFQTGLVAYVDLDERAIDALREFNEEGALSVLQQFKESDLSHVQNKSAFLCGVMKTYRQREKQGSKVQESTKGPDEAKIKALLERTGYTLDVTTGQRKYGGPPPDSVYSGVQPGIGTEVFVGKIPRDLYEDELVPLFEKAGPIWDLRLMMDPLSGQNRGYAFITFCGKEAAQEAVKLCDSYEIRPGKHLGVCISVANNRLFVGSIPKNKTKENILEEFSKVTEGLVDVILYHQPDDKKKNRGFCFLEYEDHKSAAQARRRLMSGKVKVWGNVVTVEWADPVEEPDPEVMAKVKVLFVRNLATTVTEEILEKSFSEFGKLERVKKLKDYAFVHFEDRGAAVKAMDEMNGKEIEGEEIEIVLAKPPDKKRKERQAARQASRSTAYEDYYYHPPPRMPPPIRGRGRGGGRGGYGYPPDYYGYEDYYDDYYGYDYHDYRGGYEDPYYGYDDGYAVRGRGGGRGGRGAPPPPRGRGAPPPRGRAGYSQRGAPLGPPRGSRGGRGGPAQQQRGRGSRGSRGNRGGNVGGKRKADGYNQPDSKRRQTNNQQNWGSQPIAQQPLQQGGDYSGNYGYNNDNQEFYQDTYGQQWK
# B12: TMEM65 (Homo sapiens, UniProt Q6PI78); sequence looked up; chain PMEALNTAQGARDFIYSLHSTERSCLLKELHRFESIAIAQEKLEAPPPTPGQLRYVFIHNAIPFIGFGFLDNAIMIVAGTHIEMSIGIILGISTMAAAALGNLVSDLAGLGLAGYVEALASRLGLSIPDLTPKQVDMWQTRLSTHLGKAVGVTIGCILGMFPLIFFGGGEEDEKLETKS
# B13: ldh 1-316 (Geobacillus stearothermophilus, UniProt P00344); chain MKNNGGARVVVIGAGFVGASYVFALMNQGIADEIVLIDANESKAIGDAMDFNHGKVFAPKPVDIWHGDYDDCRDADLVVICAGANQKPGETRLDLVDKNIAIFRSIVESVMASGFQGLFLVATNPVDILTYATWKFSGLPHERVIGSGTILDTARFRFLLGEYFSVAPQNVHAYIIGEHGDTELPVWSQAYIGVMPIRKLVESKGEEAQKDLERIFVNVRDAAYQIIEKKGATYYGIAMGLARVTRAILHNENAILTVSAYLDGLYGERDVYIGVPAVINRNGIREVIEIELNDDEKNRFHHSAATLKSVLARAFT
# Sequence of UniProt Q00535 (whole entry, looked up): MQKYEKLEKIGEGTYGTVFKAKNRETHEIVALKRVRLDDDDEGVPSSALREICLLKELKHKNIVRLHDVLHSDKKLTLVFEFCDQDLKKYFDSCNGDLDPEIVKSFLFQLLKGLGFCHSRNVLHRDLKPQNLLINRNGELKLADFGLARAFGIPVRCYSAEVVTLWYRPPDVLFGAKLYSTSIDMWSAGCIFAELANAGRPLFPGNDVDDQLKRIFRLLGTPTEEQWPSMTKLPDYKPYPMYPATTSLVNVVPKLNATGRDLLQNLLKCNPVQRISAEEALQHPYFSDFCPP
# Sequence of UniProt Q39054 (whole entry, looked up): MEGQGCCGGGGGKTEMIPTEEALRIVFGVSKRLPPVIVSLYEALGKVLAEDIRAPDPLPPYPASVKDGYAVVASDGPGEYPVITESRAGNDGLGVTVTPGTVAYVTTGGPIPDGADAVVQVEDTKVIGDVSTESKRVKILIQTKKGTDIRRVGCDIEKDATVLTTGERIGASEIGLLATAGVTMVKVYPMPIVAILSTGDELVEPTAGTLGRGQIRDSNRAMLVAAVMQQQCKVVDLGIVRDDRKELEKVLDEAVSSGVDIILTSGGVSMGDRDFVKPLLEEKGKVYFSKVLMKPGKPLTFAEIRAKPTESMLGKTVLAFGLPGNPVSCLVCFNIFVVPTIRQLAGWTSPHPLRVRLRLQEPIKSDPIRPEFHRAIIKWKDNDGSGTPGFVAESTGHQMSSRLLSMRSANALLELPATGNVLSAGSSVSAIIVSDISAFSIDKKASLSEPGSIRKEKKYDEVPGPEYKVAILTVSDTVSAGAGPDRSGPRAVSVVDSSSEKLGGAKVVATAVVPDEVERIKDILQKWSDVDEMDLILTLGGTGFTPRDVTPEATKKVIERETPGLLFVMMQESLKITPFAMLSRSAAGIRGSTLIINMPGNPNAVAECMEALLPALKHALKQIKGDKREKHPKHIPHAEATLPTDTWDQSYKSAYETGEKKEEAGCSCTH
Molecule,tested on,test,system,setting,scale,quantity,result
"protein (Bacillus pumilus, UniProt A3FMN7)",itself,AUC,,,,subunits per oligomer,2
B1 (cooS 1-639 C49S),itself,SEC-MALS,,,,subunits per oligomer,2
B2 (cutA1 1-112),itself,native MS,,,,subunits per oligomer,3
B3 (TBK1 D135N/H459E/N474A),itself,SEC-MALS,,,,subunits per oligomer,2
"CNX1 (Arabidopsis thaliana, UniProt Q39054)",itself,SEC,,,,subunits per oligomer,6
CAGCUGCUG (ssRNA),U2AF2,sequencing of bound RNA,RNA,motif only,,pKd,5.55
B4 (REC107 41-224),itself,SEC-SAXS,,,,subunits per oligomer,4
"VSRVSREELEDRFLRFHDENILLKQHARKQEDKIKRMATKLIRLVNDKKRYERVGG (RPGRIP1L CC1 42-97 L57F (Mus musculus, UniProt Q8CG73); sequence looked up)",itself,SEC-MALS,,,,subunits per oligomer,2
B5 (Pah F80A),itself,SEC,,,,subunits per oligomer,4
B6 (GGPS1),itself,SEC-MALS,,,,subunits per oligomer,6
B7 (clpP2 heptamer),itself,"pull-down, SEC",,,,subunits per oligomer,7
KEAFWDRCLSVGNLMSSKMLQINA,"Cyclin-dependent kinase 5, with p25 (CDK5, Homo sapiens, UniProt Q00535)","phosphotransferase activity, radiometric",peptide,"concentration not given, 10% DMSO, together with: histone substrate",baseline: p5-WT peptide,activity change,35%
B8 (RBKS E154R),itself,mass photometry,,,,subunits per oligomer,2
CUUCUGUCU (ssRNA),U2AF2,sequencing of bound RNA,RNA,motif only,,pKd,5.29
B9 (aqpZ 1-231 K4A),itself,native MS,,,,subunits per oligomer,4
B10 (ZTL 29-165 G46A/G80R),itself,SEC-SAXS,,,,subunits per oligomer,2
"Gm4951 (Mus musculus, UniProt Q3UED7)",itself,mass photometry,,together with: GDP,,subunits per oligomer,2
B11 (human hnRNP R),CYB5R4 knockout human cells,"PP4 interaction, 3xFLAG-PP4C IP-MS",,concentration not given,baseline: CYB5R4 KO over parental,log2 fold change,0.22
B12 (TMEM65),itself,cross-linking,,,,subunits per oligomer,2
human RGPD8,CYB5R4 knockout human cells,"PP4 interaction, 3xFLAG-PP4C IP-MS",,concentration not given,baseline: CYB5R4 KO over parental,log2 fold change,-0.94
B13 (ldh 1-316),itself,dynamic light scattering,,,,subunits per oligomer,2

# Repeated from above:
Molecule,tested on,test,system,setting,scale,quantity,result
B8 (RBKS E154R),itself,mass photometry,,,,subunits per oligomer,2
"Gm4951 (Mus musculus, UniProt Q3UED7)",itself,mass photometry,,together with: GDP,,subunits per oligomer,2
